Experimental data of several laboratories.
Protocols differ between the studies behind these lines. ± gives the spread as reported.

SMILES | assay | system | setting | scale | quantity | result
Cc1cc2c(c(=O)o1)C=C1CCC(C(C)CNCc3ccc(O)cc3)CC1O2 (stereo not shown) | HPLC-MS | wild-type mice | oral in drinking water, dose not given, two months |  | brain concentration | 5950 ± 660 nM
CN(C)C(=O)c1ncn2c(=O)n(C)nnc12 |  | CD-1 IGS mice, brain and serum | intravenous, 25 mg/kg, 5 min | reference: temozolomide | brain to serum ratio | > 3 fold
N#Cc1nc(N2CCOCC2)nc(N(Cc2ccc(F)cc2)CC2CCCNC2)n1 (stereo not shown) |  | female CD-1 mice | intraperitoneal, 10 mg/kg, 4 h |  | brain concentration | 16.6 ng/g
COc1ccc(OC)c(/C(=C\c2ccc(O)c(O)c2)C(=O)NCCc2ccc(O)cc2)c1 |  | KM mice, brain | oral, 50 mg/kg, below detection limit |  | brain concentration | < 0.1 ng/mL
COc1cc2c(cc1OC)CN(CCCCn1ccc3cc(OCC[18F])ccc31)C2 |  | male ICR mice | intravenous, 15 min post-injection |  | brain uptake | 3.7 ± 0.26 %ID/g
COc1cccc(OCCN2CCC[C@H](CN3CCc4cc(OC)c(OC)cc4CC3=O)C2)c1 |  | C57BL/6 mice, brain | intraperitoneal, 20 mg/kg, 15 min | reference: compound over cilobradine | brain concentration ratio | > 1
O=[11C](N1CCC(CNS(=O)(=O)c2ccc(Cl)cc2)CC1)n1cncn1 | PET | PgP/Bcrp knockout mice, brain | dose not given | reference: wild-type mice | brain uptake change | ~10%
N=C(N)NCCC[C@@H]1NC(=O)[C@H](Cc2c[nH]c3ccccc23)NC(=O)[C@@H](CC2CCCCC2)NC(=O)[C@@H]2CCCN2C(=O)[C@@H](NC(=O)CCc2ccccc2)CCCNC1=O |  | C57BL/6J mice, brain | intravenous, 1 mg/kg, up to 120 h |  | brain elimination time | ≤ 24 h
CC(C)(O)c1ccc(N2Cc3c(ccnc3-c3ccc(F)cc3OCC(F)(F)F)C2=O)cc1 |  | C57BL/6J mice male, brain | oral, 10 mg/kg, 6 h |  | brain concentration | ~45 nM
CC(C)CCN(Cc1ccc(F)cc1)c1nc(C#N)nc(N2CCOCC2)n1 |  | female CD-1 mice | intraperitoneal, 10 mg/kg, 0.5 h |  | brain concentration | 90.8 ng/g

Repeated from above:
SMILES | assay | system | setting | scale | quantity | result
N=C(N)NCCC[C@@H]1NC(=O)[C@H](Cc2c[nH]c3ccccc23)NC(=O)[C@@H](CC2CCCCC2)NC(=O)[C@@H]2CCCN2C(=O)[C@@H](NC(=O)CCc2ccccc2)CCCNC1=O |  | C57BL/6J mice, brain | intravenous, 1 mg/kg, up to 120 h |  | brain elimination time | ≤ 24 h
